Results gathered from unrelated publications.
Every numbered part comes from another study and shows a few of its results, in no order.

Study 1 — method: protein binding microarray; molecule type: double-stranded DNA, one strand shown; matrix: in vitro; tested at: not given; baseline: not given; direction: higher = stronger binding
Target: Histone acetyltransferase KAT6A, winged helix 2, GST fusion (KAT6A, Homo sapiens, UniProt Q92794, residues 85-181)
Setting: 8-mer, flanks averaged, mean of 2 arrays, mostly near background
Construct (chain): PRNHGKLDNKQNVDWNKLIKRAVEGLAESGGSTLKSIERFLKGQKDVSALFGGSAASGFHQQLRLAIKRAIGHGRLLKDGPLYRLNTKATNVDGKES
Sequence	E-score
CGTCAGCA	-0.0951
ACCGGTCT	-0.137
CAACGAGC	0.0214
GTTAGTAA	0.0918
GACTTCTC	0.0365
CCGTGTGA	0.0343
CTAAAGAA	0.0753
CGCTTGTA	0.026
TCTTTTCA	-0.172
AACTAAAT	-0.213
CATTGAAC	-0.0667
AGCGCATA	0.00717
CACCACGA	0.0783
ACGCTTCC	0.0775
AAGTAGAG	-0.139
CCTAATTA	-0.121
AATAGGTC	-0.152
CTAGGTTC	0.033

Study 2 — method: universal PBM; molecule type: double-stranded DNA, one strand shown; matrix: in vitro; tested at: not given; direction: higher = stronger binding
Target: Sal-like protein 4, full length isoform B (SALL4, Homo sapiens, UniProt Q9UJQ4-2, residues 1-616)
Setting: 8-mer, flanks averaged, mean of replicates
Sequence	E-score
ACTGCTCC	-0.231
TACACGGA	0.163
AGACTTCG	-0.0834
GCACGTGC	-0.142
AAGAAACA	0.206
GCAACCCC	-0.269
TCGAGCAA	0.0261
GATCTAAA	0.122
ACACCAAC	-0.117
ACGTGGTG	-0.202
AGCTGGCA	-0.253
TACTTACA	0.195
CTGGGACA	-0.18
AGTTTTAA	0.228
CGGAGTCA	-0.258
ATCCGTGG	-0.186
AGCGTTAC	-0.0438
CAAAATGC	0.104
AACTGTAC	0.0895
AGGTGCTG	-0.218
CTTCCGTA	-0.00268
AATAAGAA	0.296
AGCTCCAG	-0.298

Study 3 — method: RNAcompete; molecule type: RNA; matrix: in vitro; tested at: 20 nM; setting: 7-mer, probes averaged, single round; baseline: mean of 7-mers; direction: higher = stronger binding
Target: PABPC1L2, full length, GST fusion (mouse, UniProt A0ABA7IW68)
Construct (chain): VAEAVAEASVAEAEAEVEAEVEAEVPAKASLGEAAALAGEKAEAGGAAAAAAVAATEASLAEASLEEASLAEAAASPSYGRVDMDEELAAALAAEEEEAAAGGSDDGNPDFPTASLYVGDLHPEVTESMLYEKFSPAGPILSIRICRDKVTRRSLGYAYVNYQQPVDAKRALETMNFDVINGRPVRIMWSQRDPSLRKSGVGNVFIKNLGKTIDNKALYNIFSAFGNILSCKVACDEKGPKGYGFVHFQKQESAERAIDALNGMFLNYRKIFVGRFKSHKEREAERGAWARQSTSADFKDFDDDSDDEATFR
Sequence	7-mer Z-score
AAAGAUG	1.85
ACUGAUA	-0.021
UAUGCAA	-0.13
CCAUCUA	-0.249
AACACAA	1.45
AUCUGAA	0.0714
UAUAUUU	-0.277
UAGGUGC	0.407
GACAUUG	0.00617
CCAGGCU	-0.195
GUCGGGC	-0.0627
ACCGGAA	0.124
ACAACGC	-0.012
CCGGGCU	-0.0373
UGCUCAU	-0.322
UACUUAG	-0.264
GGAGUUA	-0.0844
CAUUCGC	-0.295
UUUGGGU	-0.389
AUCUCGC	-0.347
GGACACG	0.1
GCGAUCG	-0.104
CGAUUCC	-0.403
UGGUAUU	-0.106
CCUAACG	-0.407

Study 4 — method: protein-binding microarray; molecule type: double-stranded DNA, one strand shown; matrix: in vitro; tested at: 0.8 µM; setting: whole 60-bp probe, no competitor; direction: higher = stronger binding; all sequences stand within: … GTCTTGATTCGCTTGACGCTGCTG
Target: Centromere-binding protein 1, full length, N-terminal tag (CBF1, Saccharomyces cerevisiae, UniProt P17106, residues 1-351)
Chain of UniProt P17106 (whole entry, looked up): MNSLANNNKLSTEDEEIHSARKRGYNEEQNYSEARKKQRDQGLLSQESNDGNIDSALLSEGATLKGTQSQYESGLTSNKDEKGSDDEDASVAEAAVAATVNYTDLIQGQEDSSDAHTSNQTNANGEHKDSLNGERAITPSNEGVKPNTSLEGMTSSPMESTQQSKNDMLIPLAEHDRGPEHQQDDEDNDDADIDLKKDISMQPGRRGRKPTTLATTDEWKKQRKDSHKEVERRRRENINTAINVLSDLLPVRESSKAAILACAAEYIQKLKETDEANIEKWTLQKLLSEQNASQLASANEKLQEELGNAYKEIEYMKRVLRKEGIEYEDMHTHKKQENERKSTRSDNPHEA
Sequence	fluorescence intensity
CTAAAATAATTCAATCTCAACTGATAAAAACAATTC	549 a.u.
CTATTCACTGCAATCAACACCACCATGCAAACATTC	584 a.u.
GAAAATCATTACCAAAACGTGACGATTAACATATAG	1930 a.u.
CTACTAAAGAAGAATCATATGAATAAAACTAAATTC	515 a.u.
CTAATTTGCCCTCATTACGTGATAACACCACTCTTC	538 a.u.
TGTACGAAGCTATAACACGTACCTATAGTAGTTAGG	512 a.u.
TGTACGAAGCTATCCGGCGTGGGTATAGTAGTTAGG	549 a.u.
CTATTTAATTAATCGTGACTGGTCGGAGAAGGCTTC	1090 a.u.
GAAAAATTTTTTCATGTGATTTTTTCCAGACGTTAG	1200 a.u.
GAAACAGGTGGAAAACACGTGGTTGGTACGGGATAG	4310 a.u.
GAATTATGGGAACGTGGTACCGTTATCGCAGTATAG	987 a.u.
CTAAGATATGTTACTCACGCGTCGCGTCGCTCCTTC	566 a.u.
TGTACGAAGCTATTGCATGAGGTTATAGTAGTTAGG	505 a.u.
GAAGTAAGCGTGGTCGGTGTGATTTTATTAGTTTAG	555 a.u.
GAATCAAGTTTGCCTCTGATGCTGTGCGAGCTCTAG	500 a.u.
GAACACGGGATTTGTCACGCAGCGGATTTATTTTAG	892 a.u.
GAAAAATTAGTAAATGGTAACGTGAAAGAAGTATAG	779 a.u.
CTAGCCTAGGAACTACACCTGACAGCAACTTGCTTC	671 a.u.
CTAACCGCTTCTGCACACGTTTCTTAGATATGCTTC	541 a.u.
GAAAGACATATGATAAAGCTGATGTCTATTTTGTAG	523 a.u.

Study 5 — method: RNA Bind-n-Seq; molecule type: RNA; matrix: in vitro; tested at: 1 µM; setting: whole 134-nt RNA, ends assumed; together with: 150 mM KCl; baseline: input library; direction: higher = stronger binding
Target: Ras GTPase-activating protein-binding protein 1, C-terminal RGG region (G3BP1, Homo sapiens, UniProt Q13283)
Chain of UniProt Q13283 (whole entry, looked up): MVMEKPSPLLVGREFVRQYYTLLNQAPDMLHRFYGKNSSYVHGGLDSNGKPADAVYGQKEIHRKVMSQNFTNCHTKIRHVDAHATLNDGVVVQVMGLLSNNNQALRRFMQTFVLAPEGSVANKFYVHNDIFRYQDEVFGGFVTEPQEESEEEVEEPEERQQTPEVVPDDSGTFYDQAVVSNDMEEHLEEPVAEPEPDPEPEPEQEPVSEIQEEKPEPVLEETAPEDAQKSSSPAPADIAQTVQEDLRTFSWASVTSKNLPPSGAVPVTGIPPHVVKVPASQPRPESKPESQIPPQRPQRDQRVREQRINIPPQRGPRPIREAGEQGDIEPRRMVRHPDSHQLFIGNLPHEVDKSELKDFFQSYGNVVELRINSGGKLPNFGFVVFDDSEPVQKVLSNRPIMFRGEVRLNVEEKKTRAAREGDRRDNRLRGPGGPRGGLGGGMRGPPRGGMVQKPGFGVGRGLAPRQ
All sequences stand within: GGGAGUUCUACAGUCCGACGAUC … UGGAAUUCUCGGGUGUCAAGG
Sequence	log2 enrichment
GCAGGAAGUAAAAACAAAUGGAAAUGCUUCGGAUAGUGGCAGAAAUGGGGGUUGCUAAGGAAAGGGUGGGAUGGGAGUGGGUAAAGAGUU	1.54
UCAAGUCCUGUGCUACACAUCGUAUGUACCGAAUCGGAAAGGAAAAAAAGGUGGAAAGUAUUAUGUUACGCCGUUCGGAUCUGCACUUCC	-1.25
UGGCCCUGGUGACAUGCGGGGAGGAAGAGGUGGCCUCAUGGAUCGUGGUGGUCCCGGUGGAAUGUUCAGAGGUGGCCGUGGUGGAGACAG	1.97
GUCCUGUGCUACACAUCGUAUGUACCGAAUCGGGAAAAAAAGGGAAAGGGAAAAAGGGAAAGUAUUAUGUUACGCCGUUCGGAUCUGCAC	-0.56
UUAAGGGAAUCUAUUGCUGAACACAAACCUCAUAUUGACAAACUACUAAAGAUAGGCCCACAACUAAAGGAAUUAAACCCUGAGGAAGGG	-1.18
UGGCUGGCUGUGGCCUCACAGCUGAGGACUGCAAGGACCUUGCCUUUGGGCUGAGAGCCAACCAGACCCUGACCGAGCUGGACCUGAGCU	-2.19
CCUGUGCUACACAUCGUAUGUACCGAAUCGGGAAAAAAGGGGAAAAAAGGGGAAAAAAGGGAAAGUAUUAUGUUACGCCGUUCGGAUCUG	-0.99
AGUCCUGUGCUACACAUCGUAUGUACCGAAUCGGUUUUUGGUUUUUGGGUUUUUGGGGAAAGUAUUAUGUUACGCCGUUCGGAUCUGCAC	-1.38
CCUCAAGUCCUGUGCUACACAUCGUAUGUACCGAAUCGGUGGUGGUUUUUGGAAAGUAUUAUGUUACGCCGUUCGGAUCUGCACUUCCAG	-0.45
AACAUGCAGGUGGGCAUCUUUGGGAAGUGGGGCAAGGGGGGGAUAGGGAGGGGGGUAACACUUUGGGAACAGGUGGUCCCAGGUCGUUUC	-1.1

Excerpt of the above (study 2):
Sequence	E-score
AATAAGAA	0.296
GCACGTGC	-0.142
CAAAATGC	0.104
AGTTTTAA	0.228
CGGAGTCA	-0.258
GCAACCCC	-0.269
